Results of several laboratories.
Numbered parts are unrelated; each lists some results of a single study.
Sequence of UniProt Q8N752 (whole entry, looked up): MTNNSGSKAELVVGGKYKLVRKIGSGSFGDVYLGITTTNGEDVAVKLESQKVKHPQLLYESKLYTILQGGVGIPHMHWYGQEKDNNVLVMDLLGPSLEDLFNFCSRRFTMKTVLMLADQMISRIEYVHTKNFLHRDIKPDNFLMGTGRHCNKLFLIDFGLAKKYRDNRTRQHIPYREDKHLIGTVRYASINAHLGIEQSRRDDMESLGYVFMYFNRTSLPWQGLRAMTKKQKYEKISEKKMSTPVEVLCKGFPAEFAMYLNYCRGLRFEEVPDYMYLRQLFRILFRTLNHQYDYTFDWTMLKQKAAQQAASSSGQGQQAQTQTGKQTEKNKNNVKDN
Sequence of UniProt P29322 (whole entry, looked up): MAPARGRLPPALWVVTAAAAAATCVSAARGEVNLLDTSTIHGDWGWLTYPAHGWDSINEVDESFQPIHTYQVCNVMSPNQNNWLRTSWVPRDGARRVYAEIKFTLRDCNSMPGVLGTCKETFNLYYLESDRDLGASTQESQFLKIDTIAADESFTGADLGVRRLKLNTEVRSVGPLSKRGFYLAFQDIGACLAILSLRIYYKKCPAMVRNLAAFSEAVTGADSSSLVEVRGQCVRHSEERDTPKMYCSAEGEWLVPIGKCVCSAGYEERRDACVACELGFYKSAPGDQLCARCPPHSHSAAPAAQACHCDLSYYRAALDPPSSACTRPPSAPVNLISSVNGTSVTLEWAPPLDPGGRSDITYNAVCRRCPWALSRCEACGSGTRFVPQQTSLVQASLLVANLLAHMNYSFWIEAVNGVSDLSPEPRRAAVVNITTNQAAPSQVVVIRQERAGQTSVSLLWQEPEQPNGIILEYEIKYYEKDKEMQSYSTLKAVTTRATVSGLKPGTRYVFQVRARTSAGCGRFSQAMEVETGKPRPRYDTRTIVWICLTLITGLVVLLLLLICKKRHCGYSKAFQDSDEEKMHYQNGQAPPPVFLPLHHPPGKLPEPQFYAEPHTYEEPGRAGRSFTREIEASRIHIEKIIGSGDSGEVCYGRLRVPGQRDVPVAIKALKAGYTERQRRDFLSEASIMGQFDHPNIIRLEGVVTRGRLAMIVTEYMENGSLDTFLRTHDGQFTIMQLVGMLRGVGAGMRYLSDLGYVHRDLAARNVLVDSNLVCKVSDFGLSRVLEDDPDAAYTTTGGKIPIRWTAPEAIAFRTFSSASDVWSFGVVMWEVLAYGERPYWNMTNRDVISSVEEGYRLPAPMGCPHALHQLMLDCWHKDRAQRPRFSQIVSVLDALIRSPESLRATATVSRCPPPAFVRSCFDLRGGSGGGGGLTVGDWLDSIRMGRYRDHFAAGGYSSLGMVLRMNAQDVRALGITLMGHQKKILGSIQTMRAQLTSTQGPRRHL
Sequence of UniProt Q9UK32 (whole entry, looked up): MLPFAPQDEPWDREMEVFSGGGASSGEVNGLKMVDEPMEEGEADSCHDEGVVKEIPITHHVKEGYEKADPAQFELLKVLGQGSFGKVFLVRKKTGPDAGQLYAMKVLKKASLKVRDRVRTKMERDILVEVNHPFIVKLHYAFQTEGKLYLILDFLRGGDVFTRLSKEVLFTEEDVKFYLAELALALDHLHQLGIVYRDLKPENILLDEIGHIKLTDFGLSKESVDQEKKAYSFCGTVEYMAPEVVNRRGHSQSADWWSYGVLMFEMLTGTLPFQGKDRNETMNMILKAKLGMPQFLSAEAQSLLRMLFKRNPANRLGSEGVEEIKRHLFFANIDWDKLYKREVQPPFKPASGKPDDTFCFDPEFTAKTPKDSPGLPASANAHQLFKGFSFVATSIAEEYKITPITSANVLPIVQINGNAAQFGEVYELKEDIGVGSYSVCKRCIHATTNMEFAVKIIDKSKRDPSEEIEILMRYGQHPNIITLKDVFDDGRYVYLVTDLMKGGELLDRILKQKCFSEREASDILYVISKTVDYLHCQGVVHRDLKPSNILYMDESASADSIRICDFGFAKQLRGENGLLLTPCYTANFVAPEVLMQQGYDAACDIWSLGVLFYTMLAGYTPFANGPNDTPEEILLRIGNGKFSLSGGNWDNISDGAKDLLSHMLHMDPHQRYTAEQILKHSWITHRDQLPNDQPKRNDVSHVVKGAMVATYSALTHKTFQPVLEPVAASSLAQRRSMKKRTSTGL
Sequence of UniProt Q8TF76 (whole entry, looked up): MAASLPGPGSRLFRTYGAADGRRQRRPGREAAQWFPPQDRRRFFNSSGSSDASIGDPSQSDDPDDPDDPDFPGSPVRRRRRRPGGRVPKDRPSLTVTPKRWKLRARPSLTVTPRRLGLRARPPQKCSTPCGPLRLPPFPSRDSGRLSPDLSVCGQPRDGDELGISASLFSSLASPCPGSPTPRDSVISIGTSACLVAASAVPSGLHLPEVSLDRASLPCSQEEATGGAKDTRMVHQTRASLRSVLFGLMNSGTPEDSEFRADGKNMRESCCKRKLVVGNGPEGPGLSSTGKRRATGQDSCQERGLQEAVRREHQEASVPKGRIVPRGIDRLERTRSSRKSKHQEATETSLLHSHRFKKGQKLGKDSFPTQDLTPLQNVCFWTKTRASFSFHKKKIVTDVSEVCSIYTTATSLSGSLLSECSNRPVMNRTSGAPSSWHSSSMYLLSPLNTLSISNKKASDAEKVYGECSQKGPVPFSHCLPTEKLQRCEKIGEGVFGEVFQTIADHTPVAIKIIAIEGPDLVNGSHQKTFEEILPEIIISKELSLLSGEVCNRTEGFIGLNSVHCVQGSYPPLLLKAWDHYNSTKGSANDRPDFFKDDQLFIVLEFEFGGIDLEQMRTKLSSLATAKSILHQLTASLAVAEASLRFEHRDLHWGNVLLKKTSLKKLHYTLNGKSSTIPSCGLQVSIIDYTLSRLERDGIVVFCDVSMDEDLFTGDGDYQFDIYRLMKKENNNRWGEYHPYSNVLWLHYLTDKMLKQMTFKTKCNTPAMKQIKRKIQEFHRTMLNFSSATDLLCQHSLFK
Sequence of UniProt P11362 (whole entry, looked up): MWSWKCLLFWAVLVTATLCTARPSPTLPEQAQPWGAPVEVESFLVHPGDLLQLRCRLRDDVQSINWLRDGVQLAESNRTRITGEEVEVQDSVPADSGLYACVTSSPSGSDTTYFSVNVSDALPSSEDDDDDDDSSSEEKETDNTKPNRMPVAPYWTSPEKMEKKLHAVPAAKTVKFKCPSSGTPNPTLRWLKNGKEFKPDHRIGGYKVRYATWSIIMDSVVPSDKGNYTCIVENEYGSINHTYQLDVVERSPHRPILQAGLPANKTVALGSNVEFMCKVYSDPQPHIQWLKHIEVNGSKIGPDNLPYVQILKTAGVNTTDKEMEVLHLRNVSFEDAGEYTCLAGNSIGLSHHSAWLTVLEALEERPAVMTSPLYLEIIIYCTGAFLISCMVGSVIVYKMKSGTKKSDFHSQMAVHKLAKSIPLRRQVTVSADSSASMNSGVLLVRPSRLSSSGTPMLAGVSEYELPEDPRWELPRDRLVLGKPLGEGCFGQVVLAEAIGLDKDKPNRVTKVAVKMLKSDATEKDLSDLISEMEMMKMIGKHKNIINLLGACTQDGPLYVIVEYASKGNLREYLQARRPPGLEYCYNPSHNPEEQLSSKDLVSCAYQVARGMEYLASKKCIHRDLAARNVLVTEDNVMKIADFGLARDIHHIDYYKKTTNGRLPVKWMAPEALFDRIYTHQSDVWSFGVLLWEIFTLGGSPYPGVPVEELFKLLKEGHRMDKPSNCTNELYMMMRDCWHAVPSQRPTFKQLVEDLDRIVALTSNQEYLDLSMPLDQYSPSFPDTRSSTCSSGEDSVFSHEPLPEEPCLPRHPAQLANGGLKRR
Sequence of UniProt P49841 (whole entry, looked up): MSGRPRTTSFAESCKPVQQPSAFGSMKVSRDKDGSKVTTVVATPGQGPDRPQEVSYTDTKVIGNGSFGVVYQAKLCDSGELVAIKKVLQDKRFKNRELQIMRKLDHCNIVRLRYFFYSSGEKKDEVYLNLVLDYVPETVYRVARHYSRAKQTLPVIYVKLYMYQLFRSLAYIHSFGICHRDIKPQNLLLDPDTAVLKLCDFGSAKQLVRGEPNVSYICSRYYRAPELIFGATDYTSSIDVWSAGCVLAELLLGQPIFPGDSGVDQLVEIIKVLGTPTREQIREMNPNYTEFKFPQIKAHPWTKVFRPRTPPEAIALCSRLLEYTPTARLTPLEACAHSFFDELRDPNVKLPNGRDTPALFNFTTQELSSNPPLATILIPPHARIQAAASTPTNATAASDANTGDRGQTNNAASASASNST
Sequence of UniProt P36896 (whole entry, looked up): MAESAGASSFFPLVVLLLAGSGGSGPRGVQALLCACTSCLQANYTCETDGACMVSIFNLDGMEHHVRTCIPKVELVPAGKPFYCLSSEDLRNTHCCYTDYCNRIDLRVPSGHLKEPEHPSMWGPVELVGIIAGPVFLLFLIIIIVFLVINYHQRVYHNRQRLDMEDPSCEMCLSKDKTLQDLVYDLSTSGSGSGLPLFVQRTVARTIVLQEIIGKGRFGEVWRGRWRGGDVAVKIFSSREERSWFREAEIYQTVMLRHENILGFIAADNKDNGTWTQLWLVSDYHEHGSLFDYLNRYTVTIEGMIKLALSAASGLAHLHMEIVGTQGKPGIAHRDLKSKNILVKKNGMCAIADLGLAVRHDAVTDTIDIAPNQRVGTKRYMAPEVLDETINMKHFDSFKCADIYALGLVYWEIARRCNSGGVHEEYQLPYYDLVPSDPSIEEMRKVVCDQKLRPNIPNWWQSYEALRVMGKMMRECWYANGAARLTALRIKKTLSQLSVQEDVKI

Sample 1
Organism: Sarcocystis neurona
Read-out: parasite growth
Concentration: 10 µM
Structure (SMILES)	inhibition
CCC(C)n1ncn(-c2ccc(N3CCN(c4ccc(OCC5COC(Cn6cncn6)(c6ccc(Cl)cc6Cl)O5)cc4)CC3)cc2)c1=O (centres unmarked)	-35.4%
c1ccc(-c2ccc(C(c3ccccc3)n3ccnc3)cc2)cc1 (centres unmarked)	52.1%
C[C@]12C=CC(=O)C=C1CC[C@@H]1[C@@H]2[C@@H](O)C[C@@]2(C)[C@H]1CC[C@]2(O)C(=O)CO	-23.5%
COc1c(N2C[C@@H]3CCCN[C@@H]3C2)c(F)cc2c(=O)c(C(=O)O)cn(C3CC3)c12	6.3%
CN1CCCC(n2nc(Cc3ccc(Cl)cc3)c3ccccc3c2=O)CC1 (centres unmarked)	83.2%
[H]/N=C(/NCCCCC)N/N=C/c1c[nH]c2ccc(OC)cc12	98.6%
CC(=O)NC[C@H]1CN(c2ccc(N3CCOCC3)c(F)c2)C(=O)O1	3.2%
NC(=O)N1c2ccccc2C=Cc2ccccc21	-27.5%

Sample 2
Target: Serine/threonine-protein kinase 26 (STK26, Homo sapiens, UniProt Q9P289)
Sequence of UniProt Q9P289 (whole entry, looked up): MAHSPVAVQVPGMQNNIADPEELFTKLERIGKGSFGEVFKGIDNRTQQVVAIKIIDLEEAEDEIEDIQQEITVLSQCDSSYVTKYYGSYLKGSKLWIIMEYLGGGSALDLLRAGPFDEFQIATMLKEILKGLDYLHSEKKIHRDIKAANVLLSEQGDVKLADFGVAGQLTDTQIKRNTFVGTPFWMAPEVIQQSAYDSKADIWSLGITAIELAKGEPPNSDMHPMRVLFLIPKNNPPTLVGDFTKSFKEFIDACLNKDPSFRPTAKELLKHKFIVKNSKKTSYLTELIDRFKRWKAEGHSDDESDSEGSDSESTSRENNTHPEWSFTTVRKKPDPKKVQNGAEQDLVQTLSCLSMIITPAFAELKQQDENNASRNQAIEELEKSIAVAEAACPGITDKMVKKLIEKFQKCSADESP
Read-out: enzyme activity
Mode: inhibitor
Concentration: 0.5 µM
Reference: control
Compound	remaining activity
Cc1ccc(Nc2nccc(N(C)c3ccc4c(C)n(C)nc4c3)n2)cc1S(N)(=O)=O	108%
O=C1NC(=O)C(c2cn(CCCn3ccnc3)c3ccccc23)=C1Nc1ccccc1	22.2%
COc1cc2nccc(Oc3ccc(NC(=S)NC(=O)c4ccccc4C)cc3)c2cc1OC	101%
Cc1cccc(-c2[nH]c(C(C)(C)C)nc2-c2ccc3c(c2)OCO3)n1	95.5%
Cc1ccc(NC(=O)c2ccc(CN3CCN(C)CC3)cc2)cc1Nc1nc(-c2cccnc2)cs1	97%
O=C(Nc1cccc(Nc2cc(Nc3cccc(C(F)(F)F)c3)ncn2)c1)C1CC1	98.9%
CC(C)[C@H](CO)Nc1nc(Nc2cc(N)cc(Cl)c2)c2ncn(C(C)C)c2n1	67.8%
COc1cc2ncnc(Nc3ccc(F)c(Cl)c3)c2cc1OCCCN1CCOCC1	106%
COc1ccc(C(=O)Nc2sc3c(c2C(N)=O)CCCC3)cc1OC	96.6%
CN(C)c1ccc(C=C2C(=O)Nc3ccccc32)cc1	90.9%
C#Cc1cccc(Nc2ncnc3cc(OCCOC)c(OCCOC)cc23)c1	106%
Nc1ncnc2n[nH]c(Nc3ccc(F)cc3)c12	91%
CNC(=O)c1cc(Oc2ccc(NC(=O)Nc3ccc(Cl)c(C(F)(F)F)c3)cc2)ccn1	101%
COc1ccc(CNC(=O)Nc2ncc([N+](=O)[O-])s2)cc1	113%
COc1ccc(OC)c2c(=S)c3ccccc3[nH]c12	90.8%

Sample 3
SMILES: FC(F)(F)c1ccc2c(c1)nc(-c1cccnc1)n2C1CC1
Read-out: cell-free assay
Technique: competition with immobilised ligand
Concentration: 1 µM
target	remaining binding
CSNK1D (Homo sapiens, UniProt P48730)	100%
MAP3K19 (Homo sapiens, UniProt Q56UN5)	99%
EPHA8 (Homo sapiens, UniProt P29322)	100%
MELK (Homo sapiens, UniProt Q14680)	94%
Ribosomal protein S6 kinase alpha-6, C-terminal kinase domain (RPS6KA6, Homo sapiens, UniProt Q9UK32)	100%
ACVR1B (Homo sapiens, UniProt P36896)	98%
CDK11A (Homo sapiens, UniProt Q9UQ88)	100%
HASPIN (Homo sapiens, UniProt Q8TF76)	96%
FGFR1 (Homo sapiens, UniProt P11362)	100%
BMPR2 (Homo sapiens, UniProt Q13873)	100%
FLT3 (Homo sapiens, UniProt P36888, D835H)	69%
CSNK1A1L (Homo sapiens, UniProt Q8N752)	100%
MAPK11 (Homo sapiens, UniProt Q15759)	100%
GSK3B (Homo sapiens, UniProt P49841)	100%
TAOK3 (Homo sapiens, UniProt Q9H2K8)	100%
Ribosomal protein S6 kinase alpha-4, N-terminal kinase domain (RPS6KA4, Homo sapiens, UniProt O75676)	99%
MET (Homo sapiens, UniProt P08581, M1250T)	100%
MAP2K4 (Homo sapiens, UniProt P45985)	100%

Sample 4
Cell line: HaCaT
Concentration: 100 µM
Time: 60 h
SMILES	viability [%]
NC(=O)N[C@@H](CCC(=O)O)C(=O)O	125
CCC(=O)c1c(O)cc(O)cc1O	118
Nc1ccc(O)c(C(=O)O)c1	131

Some of these lines once more (sample 3):
target	remaining binding
FLT3 (Homo sapiens, UniProt P36888, D835H)	69%
BMPR2 (Homo sapiens, UniProt Q13873)	100%
MAP3K19 (Homo sapiens, UniProt Q56UN5)	99%
MET (Homo sapiens, UniProt P08581, M1250T)	100%
